Measurements from different studies.
Values joined by “and” are separate records of one study, mostly repeats; a detail may differ. Numbers after ± are the reported error.
T1: riboswitch RNA, fused to Pepper aptamer; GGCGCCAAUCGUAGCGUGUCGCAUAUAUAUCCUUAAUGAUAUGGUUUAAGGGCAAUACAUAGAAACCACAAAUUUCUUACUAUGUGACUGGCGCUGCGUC
T2: G-quadruplex DNA, parallel G-quadruplex (Homo sapiens); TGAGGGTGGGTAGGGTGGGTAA
Sequence of UniProt P30531 (whole entry, looked up): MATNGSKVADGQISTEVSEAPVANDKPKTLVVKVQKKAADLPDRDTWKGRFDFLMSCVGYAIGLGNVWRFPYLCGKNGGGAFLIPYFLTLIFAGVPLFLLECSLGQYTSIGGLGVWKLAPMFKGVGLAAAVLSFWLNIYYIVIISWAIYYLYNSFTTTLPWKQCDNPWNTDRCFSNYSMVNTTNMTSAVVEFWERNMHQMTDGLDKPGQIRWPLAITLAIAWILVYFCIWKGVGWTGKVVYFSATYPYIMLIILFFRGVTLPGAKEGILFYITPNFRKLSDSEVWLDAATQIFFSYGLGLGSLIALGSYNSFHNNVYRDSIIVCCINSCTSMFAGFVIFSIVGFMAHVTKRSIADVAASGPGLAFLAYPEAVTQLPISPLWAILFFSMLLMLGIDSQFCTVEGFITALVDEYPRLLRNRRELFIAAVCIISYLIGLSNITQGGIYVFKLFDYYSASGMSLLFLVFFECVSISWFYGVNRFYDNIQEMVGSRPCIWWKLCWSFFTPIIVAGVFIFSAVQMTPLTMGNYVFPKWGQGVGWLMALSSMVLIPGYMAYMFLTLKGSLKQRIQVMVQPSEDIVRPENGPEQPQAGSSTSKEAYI
Sequence of UniProt Q9UNH7 (whole entry, looked up): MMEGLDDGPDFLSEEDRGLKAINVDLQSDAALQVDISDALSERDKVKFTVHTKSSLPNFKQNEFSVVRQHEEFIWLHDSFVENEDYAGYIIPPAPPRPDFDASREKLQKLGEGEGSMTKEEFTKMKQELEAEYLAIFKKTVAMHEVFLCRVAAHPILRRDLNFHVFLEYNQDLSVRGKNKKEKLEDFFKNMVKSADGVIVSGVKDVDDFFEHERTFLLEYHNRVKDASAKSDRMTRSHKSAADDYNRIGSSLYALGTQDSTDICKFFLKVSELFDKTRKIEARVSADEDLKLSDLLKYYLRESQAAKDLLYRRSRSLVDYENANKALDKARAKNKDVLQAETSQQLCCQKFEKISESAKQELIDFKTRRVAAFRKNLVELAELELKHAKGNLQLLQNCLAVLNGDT
Sequence of UniProt P55210 (whole entry, looked up): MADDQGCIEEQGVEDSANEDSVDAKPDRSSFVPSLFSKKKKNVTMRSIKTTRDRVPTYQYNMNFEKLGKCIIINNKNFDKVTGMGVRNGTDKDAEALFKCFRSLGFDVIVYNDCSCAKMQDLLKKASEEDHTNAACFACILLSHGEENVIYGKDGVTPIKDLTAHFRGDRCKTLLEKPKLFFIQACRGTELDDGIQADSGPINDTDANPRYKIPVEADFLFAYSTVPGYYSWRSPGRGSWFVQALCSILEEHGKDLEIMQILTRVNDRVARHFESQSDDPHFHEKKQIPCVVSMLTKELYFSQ
Sequence of UniProt P00921 (whole entry, looked up): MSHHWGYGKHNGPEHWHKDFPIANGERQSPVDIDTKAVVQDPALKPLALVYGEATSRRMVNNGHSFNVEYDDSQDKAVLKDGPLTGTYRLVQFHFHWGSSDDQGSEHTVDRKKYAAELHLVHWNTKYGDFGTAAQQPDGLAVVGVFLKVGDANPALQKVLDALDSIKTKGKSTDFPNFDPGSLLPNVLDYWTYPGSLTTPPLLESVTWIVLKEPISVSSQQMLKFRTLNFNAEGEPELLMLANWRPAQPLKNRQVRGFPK
Sequence of UniProt P19491 (whole entry, looked up): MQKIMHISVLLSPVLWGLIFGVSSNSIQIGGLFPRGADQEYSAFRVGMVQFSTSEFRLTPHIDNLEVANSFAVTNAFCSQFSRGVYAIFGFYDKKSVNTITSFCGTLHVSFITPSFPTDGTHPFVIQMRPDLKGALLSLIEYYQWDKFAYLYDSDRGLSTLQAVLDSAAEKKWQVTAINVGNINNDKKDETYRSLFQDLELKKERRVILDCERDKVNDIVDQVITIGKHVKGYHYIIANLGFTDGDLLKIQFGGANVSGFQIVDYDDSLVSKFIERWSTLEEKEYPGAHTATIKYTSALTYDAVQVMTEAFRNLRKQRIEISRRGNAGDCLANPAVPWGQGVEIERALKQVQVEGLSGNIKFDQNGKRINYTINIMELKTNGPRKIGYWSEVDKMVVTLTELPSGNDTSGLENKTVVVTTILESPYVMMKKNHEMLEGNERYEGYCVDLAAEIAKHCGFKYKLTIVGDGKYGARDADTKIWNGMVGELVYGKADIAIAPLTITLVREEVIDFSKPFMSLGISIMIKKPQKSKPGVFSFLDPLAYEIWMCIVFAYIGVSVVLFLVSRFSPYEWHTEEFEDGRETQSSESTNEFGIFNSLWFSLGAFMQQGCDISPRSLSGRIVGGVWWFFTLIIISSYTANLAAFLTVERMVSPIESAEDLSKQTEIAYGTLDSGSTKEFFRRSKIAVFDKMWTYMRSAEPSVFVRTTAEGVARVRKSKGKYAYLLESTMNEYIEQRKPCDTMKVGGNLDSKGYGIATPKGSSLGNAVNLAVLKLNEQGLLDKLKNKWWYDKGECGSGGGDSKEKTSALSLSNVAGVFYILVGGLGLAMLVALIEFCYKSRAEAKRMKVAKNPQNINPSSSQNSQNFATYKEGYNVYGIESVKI
Sequence of UniProt Q96RI0 (whole entry, looked up): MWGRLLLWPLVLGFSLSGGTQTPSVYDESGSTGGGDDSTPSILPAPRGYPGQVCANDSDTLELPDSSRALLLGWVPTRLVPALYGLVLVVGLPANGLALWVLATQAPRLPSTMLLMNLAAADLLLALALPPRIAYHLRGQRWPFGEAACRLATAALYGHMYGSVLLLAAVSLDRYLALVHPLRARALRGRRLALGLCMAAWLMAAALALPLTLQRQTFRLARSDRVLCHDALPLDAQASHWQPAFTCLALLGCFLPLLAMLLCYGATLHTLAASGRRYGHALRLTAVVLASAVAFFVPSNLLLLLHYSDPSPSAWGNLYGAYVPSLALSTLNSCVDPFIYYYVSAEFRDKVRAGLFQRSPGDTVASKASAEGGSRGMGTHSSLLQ
Sequence of UniProt P14778 (whole entry, looked up): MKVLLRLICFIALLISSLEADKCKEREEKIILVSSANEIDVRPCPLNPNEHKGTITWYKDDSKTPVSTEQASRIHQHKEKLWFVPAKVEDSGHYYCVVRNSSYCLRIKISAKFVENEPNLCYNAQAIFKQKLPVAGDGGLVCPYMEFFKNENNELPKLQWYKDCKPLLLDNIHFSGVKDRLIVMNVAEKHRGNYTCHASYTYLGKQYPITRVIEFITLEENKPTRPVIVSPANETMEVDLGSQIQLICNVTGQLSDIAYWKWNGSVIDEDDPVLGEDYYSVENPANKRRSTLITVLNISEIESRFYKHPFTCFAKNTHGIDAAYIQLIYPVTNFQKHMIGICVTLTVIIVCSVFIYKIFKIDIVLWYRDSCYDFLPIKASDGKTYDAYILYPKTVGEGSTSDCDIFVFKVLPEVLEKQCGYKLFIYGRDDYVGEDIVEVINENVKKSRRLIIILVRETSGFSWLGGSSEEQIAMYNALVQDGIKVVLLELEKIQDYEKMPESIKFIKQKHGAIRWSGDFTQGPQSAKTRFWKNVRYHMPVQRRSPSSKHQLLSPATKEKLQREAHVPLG
Sequence of UniProt P50990 (whole entry, looked up): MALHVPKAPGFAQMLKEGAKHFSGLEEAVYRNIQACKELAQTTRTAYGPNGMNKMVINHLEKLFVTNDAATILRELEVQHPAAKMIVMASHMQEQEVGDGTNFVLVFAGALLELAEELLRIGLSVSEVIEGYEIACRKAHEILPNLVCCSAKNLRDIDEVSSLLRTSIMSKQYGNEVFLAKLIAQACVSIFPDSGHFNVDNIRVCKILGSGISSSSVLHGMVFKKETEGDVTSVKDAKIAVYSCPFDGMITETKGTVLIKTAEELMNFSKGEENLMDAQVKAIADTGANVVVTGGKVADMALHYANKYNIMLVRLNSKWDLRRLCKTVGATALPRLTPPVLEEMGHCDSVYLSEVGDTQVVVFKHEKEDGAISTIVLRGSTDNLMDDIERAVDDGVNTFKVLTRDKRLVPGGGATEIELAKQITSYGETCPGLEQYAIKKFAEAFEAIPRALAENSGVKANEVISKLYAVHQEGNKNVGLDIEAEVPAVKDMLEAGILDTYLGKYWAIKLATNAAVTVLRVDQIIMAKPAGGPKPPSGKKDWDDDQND
Sequence of UniProt P34972 (whole entry, looked up): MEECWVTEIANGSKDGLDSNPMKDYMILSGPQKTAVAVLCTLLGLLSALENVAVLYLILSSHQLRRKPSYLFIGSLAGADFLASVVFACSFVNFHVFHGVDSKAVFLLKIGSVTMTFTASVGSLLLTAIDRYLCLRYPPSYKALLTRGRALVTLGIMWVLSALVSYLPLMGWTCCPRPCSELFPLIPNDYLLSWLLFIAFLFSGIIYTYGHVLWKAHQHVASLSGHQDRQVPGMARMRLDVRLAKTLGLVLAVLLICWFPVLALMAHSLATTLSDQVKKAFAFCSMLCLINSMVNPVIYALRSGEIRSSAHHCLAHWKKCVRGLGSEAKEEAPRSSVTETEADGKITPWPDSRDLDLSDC

SMILES | target | assay | system | conditions | scale | quantity | result
O=C(O)Cc1cc2c(cc1C(=O)c1ccccc1Cl)OCO2 | Gria2 (Rattus norvegicus, UniProt P19491) | glutamate-evoked current, whole-cell patch clamp | HEK-293T | concentration not given, pH 7.4, holding potential -60 mV, together with: 10 mM glutamate | – | current amplitude | 175 ± 18 pA
Cc1ccc(-c2n[nH]cc2CNC(=O)C2(C#N)CC2)cc1 | human kinase panel | binding, KINOMEscan | – | 10000 nM, %Ctrl below 10 | – | number of kinases hit | 1
N#Cc1cnc2sc(C(=O)O)cc2c1N1CCc2[nH]nc(C(=O)N[C@@H](CC(=O)NCCOCCN3CCOCC3)c3cccc(Br)c3)c2C1 | IL1R1 (Homo sapiens, UniProt P14778) | SEAP reporter gene, antagonist | HEK-Blue IL-36R cells | 1.23 µM, 6 h, together with: IL-1β 5 ng/mL | reference: untreated | remaining activity | 94.9%
CC(=O)N[C@@H](CC(C)C)C(=O)N[C@H](C(=O)N[C@@H](Cc1c[nH]cn1)C(=O)N[C@@H](CC(=O)O)C(=O)COC(=O)c1c(C)cccc1C)C(C)(C)C | Caspase-7 (CASP7, Homo sapiens, UniProt P55210) | enzyme activity, inhibitor | – | – | – | kinact/KI | 600 M⁻¹ s⁻¹
Cc1ccc(-c2c[nH]nc2NC(=O)c2ccoc2C)cc1 | human kinase panel | binding, KINOMEscan | – | 10000 nM, %Ctrl below 10 | – | number of kinases hit | 0
CCOC(=O)C(CC)(CCCSCCOCCN)NC(=O)c1ccc(C2CC2)c(Cc2ccc(F)cc2)n1 (centres unmarked) | CNR2 (Homo sapiens, UniProt P34972) | radioligand binding | – | – | reference: CB1 over CB2 (human) | Ki ratio | 3
CN(C)c1ccc2c3c(cccc13)C(=O)N(CCc1ccc(S(N)(=O)=O)cc1)C2=O | CA2 (Bos taurus, UniProt P00921) | binding | – | – | – | emission maximum | 536 nm
CCCCCCCCCCCCC/C=C/C=O | CCT8 (Homo sapiens, UniProt P50990) | competitive isoTOP-ABPP | proteome, soluble, MDA-MB-231 | 100 µM, 60 min, together with: iodoacetamide probe | reference: DMSO over compound-treated, higher = stronger cysteine blockade | isoTOP-ABPP competition ratio | 1.1
Nc1nc2c(ncn2[C@@H]2O[C@H](CO)C[C@H]2O)c(=O)[nH]1 | T1, riboswitch RNA, fused to Pepper aptamer | fluorescence | – | 5 µM | – | binding | binds weakly
CCCCCCCCCCCCCCCC(=O)N[C@@H](CCCCN)C(=O)N[C@@H](CCCCN)C(=O)N[C@@H](CO)C(=O)N[C@@H](CCCNC(=N)N)C(=O)N[C@@H](C)C(=O)N[C@@H](CC(C)C)C(=O)N[C@@H](Cc1ccccc1)C(N)=O | F2RL3 (Homo sapiens, UniProt Q96RI0) | antagonist, ex vivo light transmittance aggregometry | human, platelet-rich plasma | 0.5 mg/kg, 1 h, together with: AYPGKF 160 µM | reference: baseline | inhibition of platelet aggregation | 22%
COc1ccc(C(OCCN2CCCC(C(=O)O)C2)(c2ccc(OC)cc2)c2ccc(OC)cc2)cc1 (centres unmarked) | SLC6A1 (Homo sapiens, UniProt P30531) | GABA transport, inhibitor, radioligand uptake | HEK293F transfected | 160 nM, 15 min pre, 45 min uptake, room temperature, together with: [3H]-GABA 30 nM, GABA 25 µM | higher = more uptake | [3H]-GABA uptake | 1090 a.u. and 1480 a.u. and 1010 a.u. and 1240 a.u. and 1470 a.u. and 4330 a.u. and 1360 a.u. and 4820 a.u.
C=CC(=O)N1CCCC(n2c(=O)c3ncccc3n(Cc3ccc(Oc4ccccc4)cc3)c2=O)C1 (centres unmarked) | Sorting nexin-6 (SNX6, Homo sapiens, UniProt Q9UNH7) | thermal proteome profiling, refers to: SNX6 | – | unit not given | reference: vehicle | melting temperature shift | -4.12
CN(C)c1ccc(C2=C/C(=C/C=C/C3=[N+](C)c4ccccc4C3(C)C)c3ccccc3O2)cc1 | T2, G-quadruplex DNA, parallel G-quadruplex (Homo sapiens) | fluorescence turn-on | – | absorption red shift | – | binding | binds
CC(C=CC=C(C)C=CC1=C(C)CCCC1(C)C)=CC=O | Rhodopsin (RHO, Homo sapiens, UniProt P08100, P23H) | ER retention, immunostaining co-localization, refers to: opsin with calnexin | COS-7 transfected P23H | 10.00 µM | – | Pearson correlation coefficient | 0.69

Repeated from above:
SMILES | target | assay | system | conditions | scale | quantity | result
CCCCCCCCCCCCC/C=C/C=O | CCT8 (Homo sapiens, UniProt P50990) | competitive isoTOP-ABPP | proteome, soluble, MDA-MB-231 | 100 µM, 60 min, together with: iodoacetamide probe | reference: DMSO over compound-treated, higher = stronger cysteine blockade | isoTOP-ABPP competition ratio | 1.1
